Measurements gathered from unrelated publications.
Numbered parts are unrelated; each lists some results of a single study. “And” joins repeats or separate records; there may be more than shown.

Study 1
SMILES: CC(=O)N[C@@H](Cc1c[nH]c2ccccc12)C(=O)N[C@@H](CCC(=O)C=[N+]=[N-])C(=O)OC(C)C
Species: C57BL/6 CES1-/- mice, EL4 tumour
Route: subcutaneous
Dose: 0.3 mg/kg/day DON equivalent
Time: 5 days
Endpoint: metabolite peak intensity
UPLC-MS/MS metabolomics, item: glutamate; EL4 tumour; normalised to tissue mass: 6.17e+09 a.u. and 4.53e+09 a.u. and 5.12e+09 a.u. and 5.78e+09 a.u. and 3.7e+09 a.u. and 5.9e+09 a.u.
UPLC-MS/MS, item: guanosine; EL4, tumour; normalised to tissue mass; higher = more metabolite: 2.19e+07 a.u. and 1.78e+07 a.u. and 1.66e+07 a.u. and 1.55e+07 a.u. and 1.2e+07 a.u. and 1.48e+07 a.u.
LC-MS/MS metabolomics, item: orotate; EL4 tumour; higher = more metabolite: 1.5e+08 a.u. and 2.71e+08 a.u. and 7.06e+07 a.u. and 9.72e+07 a.u. and 1.54e+08 a.u. and 8.36e+07 a.u.
LC-MS/MS metabolomics, item: 3-phenylpropionate; EL4 tumour; normalised to tissue mass; higher = more metabolite: 48900 a.u. and 32600 a.u. and 47500 a.u. and 46100 a.u. and 23700 a.u.
UPLC-MS/MS metabolomics, item: gamma-glutamylcysteine; EL4 tumour; normalised to tissue mass: 158000 a.u. and 73300 a.u. and 401000 a.u. and 702000 a.u. and 694000 a.u. and 588000 a.u.
LC-MS/MS metabolomics, item: phenylacetylglycine; EL4 tumour; higher = more metabolite: 354000 a.u. and 967000 a.u. and 254000 a.u. and 518000 a.u. and 334000 a.u. and 348000 a.u.
LC-MS/MS metabolomics, item: mannitol/sorbitol; EL4 tumour; higher = more metabolite: 3.04e+07 a.u. and 1.97e+07 a.u. and 1.61e+07 a.u. and 3.02e+07 a.u. and 2.71e+07 a.u. and 2.82e+07 a.u.
UPLC-MS/MS, item: ADP; EL4 tumour: 3.13e+06 a.u. and 5.72e+06 a.u. and 1.7e+06 a.u. and 2.28e+06 a.u. and 7.58e+06 a.u. and 7.49e+06 a.u.
UPLC-MS/MS metabolomics, item: N-acetylvaline; EL4 tumour; normalised to tissue mass; higher = more metabolite: 198000 a.u. and 188000 a.u. and 223000 a.u. and 127000 a.u. and 184000 a.u. and 154000 a.u.
UPLC-MS/MS, item: hypoxanthine; EL4, tumour; normalised to tissue mass; higher = more metabolite: 3.41e+07 a.u. and 3.7e+07 a.u. and 4.11e+07 a.u. and 3.44e+07 a.u. and 3.3e+07 a.u. and 3.31e+07 a.u.
UPLC-MS/MS, item: FGAR; EL4 tumour: 2.01e+07 a.u. and 4.59e+07 a.u. and 6e+07 a.u. and 1.26e+08 a.u. and 1.14e+08 a.u. and 5.11e+07 a.u.
LC-MS/MS metabolomics, item: 2-hydroxy-4-(methylthio)butanoic acid; EL4 tumour; normalised to tissue mass; higher = more metabolite: 791000 a.u. and 1.93e+06 a.u. and 1.54e+06 a.u. and 2.63e+06 a.u. and 1.26e+06 a.u. and 1.22e+06 a.u.

Study 2
Organism: Sarcocystis neurona
Observed: parasite growth
Tested at: 10 µM
Endpoint: inhibition
CC1(C)S[C@@H]2[C@H](/N=C/N3CCCCCC3)C(=O)N2[C@H]1C(=O)O: -20.2%
CCc1nc(N)nc(N)c1-c1ccc(Cl)cc1: 79.3%
CCOC(=O)C1=C(C)NC(C)=C(C(=O)OCC)C1c1ccccc1/C=C/C(=O)OC(C)(C)C: 28.1%
COc1cccc2c1C(=O)c1c(O)c3c(c(O)c1C2=O)C[C@@](O)(C(C)=O)C[C@@H]3O[C@H]1C[C@H](N)[C@H](O)[C@H](C)O1: 96.6%
CCOC(=O)[C@H](CCc1ccccc1)N[C@@H](C)C(=O)N1Cc2ccccc2C[C@H]1C(=O)O: -29.7%
OC[C@H]1O[C@@H](Oc2cc(O)cc(/C=C/c3ccc(O)cc3)c2)[C@H](O)[C@@H](O)[C@@H]1O: -21.1%
CO/N=C(\C(=O)N[C@@H]1C(=O)N2C(C(=O)O)=C(COC(N)=O)CS[C@H]12)c1ccco1: -19.6%
O=C1CC[C@@H](C(=O)N2CSC[C@H]2C(=O)O)N1: -20.5%
CC1(C)O[C@@H]2C[C@H]3[C@@H]4CCC5=CC(=O)C=C[C@]5(C)[C@@]4(F)[C@@H](O)C[C@]3(C)[C@]2(C(=O)CO)O1: -28.7%
CCC1=C(C)CN(C(=O)NCCc2ccc(S(=O)(=O)NC(=O)N[C@H]3CC[C@H](C)CC3)cc2)C1=O: -39.3%
COC1=CC(=O)C[C@@H](C)[C@]12Oc1c(Cl)c(OC)cc(OC)c1C2=O: -45.8%
C[C@]12CC[C@@H]3c4ccc(O)cc4CC[C@H]3[C@@H]1CC[C@@H]2O: -44.2%
COC(=O)Nc1nc2cc(C(=O)c3ccc(F)cc3)ccc2[nH]1: 19.7%
C=CC[C@@H]1/C=C(\C)C[C@H](C)C[C@H](OC)[C@H]2O[C@@](O)(C(=O)C(=O)N3CCCC[C@H]3C(=O)O[C@H](/C(C)=C/[C@@H]3CC[C@@H](O)[C@H](OC)C3)[C@H](C)[C@@H](O)CC1=O)[C@H](C)C[C@@H]2OC: 25.5%
CCCCc1oc2ccccc2c1C(=O)c1cc(I)c(OCCN(CC)CC)c(I)c1: 6.1%
CC(=O)O[C@@]12CO[C@@H]1C[C@H](O)[C@@]1(C)C(=O)[C@H](O)C3=C(C)[C@@H](OC(=O)[C@H](O)[C@@H](NC(=O)OC(C)(C)C)c4ccccc4)C[C@@](O)([C@@H](OC(=O)c4ccccc4)[C@H]21)C3(C)C: 52.4%
CCCCNc1cc(C(=O)O)cc(S(N)(=O)=O)c1Oc1ccccc1: -24.9%
CCCCC1=NC2(CCCC2)C(=O)N1Cc1ccc(-c2ccccc2-c2nnn[nH]2)cc1: 2.8%
CN1CCc2cc(Cl)c(O)cc2[C@@H](c2ccccc2)C1.Cl: -31%

Study 3
Cell line: patient-derived normal-adjacent epithelium organoids
Tested at: 1 µM
Baseline: DMSO control
Endpoint: viability
c1ccc(N2CCN(Cc3nc4ccccc4[nH]3)CC2)nc1: 116%
CN1CCN(Cc2ccc(Nc3ncc(Cl)c(Nc4ccccc4S(=O)(=O)N(C)C)n3)cc2)CC1: 0.9%
Cc1cn(-c2cc(NC(=O)c3ccc4c(c3)CN(c3cncnc3)C[C@@H]4C)cc(C(F)(F)F)c2)cn1: 77.6%
Cc1noc([C@H]2C[C@@H](c3ccc(C(F)(F)F)cc3)CN(C(=O)N3CCS(=O)(=O)C3)C2)n1: 112%
CN([C@@H]1CCc2c(CC(=O)O)c3ccccc3n2C1)S(=O)(=O)c1ccc(F)cc1: 129%
O=c1nc(-c2ccccn2)sc2ccccc12: 128%
O=C1NC(c2ccccn2)Sc2ccccc21 (centres unmarked): 107%
O=C(N1CCS(=O)(=O)CC1)N1C[C@H](c2ccc(OC(F)(F)F)cc2)C[C@H](c2nc(C3CC3)no2)C1: 106%
CC(=O)c1c(NS(C)(=O)=O)c2cc(-c3ccc(Cl)cc3)c(-c3ccc(Cl)cc3Cl)nc2n(C)c1=O: 94%
CC(=O)N1CCC(c2ccc(C(=O)NC(=N)N)cc2C(F)(F)F)CC1: 113%
COc1cc(-c2cn(C3CCc4ccccc4N(CC(F)(F)F)C3=O)nn2)ccc1-n1ccc(C)n1 (centres unmarked): 83.4%
CC1=C(C#N)C(c2ccc3[nH]nc(C)c3c2)C(C#N)=C(C)N1: 107%
C[C@H](NC(=O)Nc1cc2[nH]ncc2c(CO)n1)c1ccccn1: 91%
Cc1nc(N2CC[C@@H](O)C2)ncc1-c1cc(C(F)(F)F)cc2[nH]ncc12: 99.6%
C[C@@H](NC(=O)Nc1cc2[nH]ncc2c(CO)n1)c1ccccc1: 94.9%
CC(=O)Nc1c(C(C)=O)c(=O)n(C)c2nc(-c3ccc(Cl)cc3Cl)c(-c3ccc(Cl)cc3)cc12: 107%
COc1cc(-c2cn(C3CCc4c(F)cccc4N(CC(F)(F)F)C3=O)nn2)ccc1-n1cnc(C)c1 (centres unmarked): 106%
CCNC(=O)c1cc2c(N3CCOC[C@@H]3C)ccnc2[nH]1: 114%
CC(=O)N1CCC(c2ccc(C(=O)NC3=NCCN3)cc2C(F)(F)F)CC1: 93.9%

Study 4
Target: Serine/threonine-protein kinase PAK 5 (PAK5, Homo sapiens, UniProt Q9P286)
Sequence of UniProt Q9P286 (whole entry, looked up): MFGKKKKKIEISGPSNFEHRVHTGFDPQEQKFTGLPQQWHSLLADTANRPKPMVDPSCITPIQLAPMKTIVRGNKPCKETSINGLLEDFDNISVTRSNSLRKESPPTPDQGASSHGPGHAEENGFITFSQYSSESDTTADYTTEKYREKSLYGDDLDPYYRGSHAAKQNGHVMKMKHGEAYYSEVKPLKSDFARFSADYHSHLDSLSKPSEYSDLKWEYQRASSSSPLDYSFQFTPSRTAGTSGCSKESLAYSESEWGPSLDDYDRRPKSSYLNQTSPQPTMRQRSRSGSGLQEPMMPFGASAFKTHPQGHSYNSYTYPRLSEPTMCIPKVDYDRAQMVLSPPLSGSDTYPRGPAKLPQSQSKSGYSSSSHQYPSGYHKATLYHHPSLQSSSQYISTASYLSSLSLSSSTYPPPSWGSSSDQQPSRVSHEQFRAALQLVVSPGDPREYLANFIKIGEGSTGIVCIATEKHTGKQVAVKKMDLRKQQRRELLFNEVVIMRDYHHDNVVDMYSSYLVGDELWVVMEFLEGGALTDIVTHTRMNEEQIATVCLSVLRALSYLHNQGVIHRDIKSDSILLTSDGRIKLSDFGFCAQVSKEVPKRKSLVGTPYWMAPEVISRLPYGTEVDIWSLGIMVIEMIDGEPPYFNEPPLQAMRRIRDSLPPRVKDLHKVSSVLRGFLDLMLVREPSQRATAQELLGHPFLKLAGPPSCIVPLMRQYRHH
Observed: enzyme activity
Action: inhibitor
Tested at: 0.5 µM
Baseline: control
Endpoint: remaining activity
Nc1cccc(-c2cc3c(Oc4cccc(O)c4)ncnc3[nH]2)c1: 86.9%
O=C1C(Cl)=C(N2C(=O)CCC2=O)C(=O)c2ccccc21: 108%
CCN(CC)CCNC(=O)c1c(C)[nH]c(/C=C2\C(=O)Nc3ccc(Cl)cc32)c1C: 58.9%
CCOc1nc(NC(=O)Cc2cc(OC)ccc2OC)cc(N)c1C#N: 107%
O=c1cc(-c2cccc3c2Sc2ccccc2S3)oc(N2CCOCC2)c1: 98.8%
Cc1cc2ncc(-c3ccccc3)nc2cc1C: 96.9%
Cn1nc2c3c(cccc31)C(=O)c1ccccc1-2: 102%
O=C(Nc1cccc(Nc2nccc(Nc3cccc(C(F)(F)F)c3)n2)c1)C1CC1: 89.2%
C[C@@H]1CCN(C(=O)CC#N)C[C@@H]1N(C)c1ncnc2[nH]ccc12: 93.6%
COc1cc2ncnc(Nc3cccc(Cl)c3)c2cc1OC: 83%
c1ccc(-c2[nH]ncc2-c2ccnc3ccccc23)nc1: 97.1%
N#Cc1c(NC(=O)c2cccc3ccccc23)sc2c1CCCC2: 103%
COc1cc2ncnc(Nc3ccc(O)c(Br)c3)c2cc1OC: 97.7%
Cc1cn(-c2cc(NC(=O)c3ccc(C)c(Nc4nccc(-c5cccnc5)n4)c3)cc(C(F)(F)F)c2)cn1: 97.7%
O=C1c2ccccc2-c2n[nH]c3cccc1c23: 89.1%
CN([C@@H](Cc1ccc(OS(=O)(=O)c2cccc3cnccc23)cc1)C(=O)N1CCN(c2ccccc2)CC1)S(=O)(=O)c1cccc2cnccc12: 103%
COc1cc2c(cc1OC)-c1[nH]nc(Nc3cccc(F)c3)c1C2: 93.2%
c1ccc(-c2cnc(Nc3ccc(OCCN4CCCC4)cc3)s2)cc1: 87.2%
Cc1nc2cc3nc(-c4cccs4)cnc3cc2n1C: 114%
CCN(CC)CCNC(=O)c1c(C)[nH]c(/C=C2\C(=O)Nc3ccc(F)cc32)c1C: 81.6%
O=C(NC(NC(=S)Nc1ccc(F)c([N+](=O)[O-])c1)C(Cl)(Cl)Cl)C(c1ccccc1)c1ccccc1 (centres unmarked): 104%
Ic1cccc(CSc2nnc(-c3ccncc3)o2)c1: 99.3%
CCN(CC)C(=O)c1ccc(Nc2nc(OCC3CCCCC3)c3[nH]cnc3n2)cc1: 49.1%
CN(C)C[C@H]1CCn2c(c(C3=C(c4cn(C)c5ccccc45)C(=O)NC3=O)c3ccccc32)C1: 100%

Excerpt of the above (study 4):
COc1cc2ncnc(Nc3ccc(O)c(Br)c3)c2cc1OC: 97.7%
CCN(CC)CCNC(=O)c1c(C)[nH]c(/C=C2\C(=O)Nc3ccc(F)cc32)c1C: 81.6%
O=C(Nc1cccc(Nc2nccc(Nc3cccc(C(F)(F)F)c3)n2)c1)C1CC1: 89.2%
CN([C@@H](Cc1ccc(OS(=O)(=O)c2cccc3cnccc23)cc1)C(=O)N1CCN(c2ccccc2)CC1)S(=O)(=O)c1cccc2cnccc12: 103%
O=C1C(Cl)=C(N2C(=O)CCC2=O)C(=O)c2ccccc21: 108%
O=C(NC(NC(=S)Nc1ccc(F)c([N+](=O)[O-])c1)C(Cl)(Cl)Cl)C(c1ccccc1)c1ccccc1 (centres unmarked): 104%
C[C@@H]1CCN(C(=O)CC#N)C[C@@H]1N(C)c1ncnc2[nH]ccc12: 93.6%
Cc1nc2cc3nc(-c4cccs4)cnc3cc2n1C: 114%
CCN(CC)C(=O)c1ccc(Nc2nc(OCC3CCCCC3)c3[nH]cnc3n2)cc1: 49.1%
COc1cc2c(cc1OC)-c1[nH]nc(Nc3cccc(F)c3)c1C2: 93.2%
Cc1cc2ncc(-c3ccccc3)nc2cc1C: 96.9%
CN(C)C[C@H]1CCn2c(c(C3=C(c4cn(C)c5ccccc45)C(=O)NC3=O)c3ccccc32)C1: 100%
